Measured values pooled from the literature.
Every numbered part comes from another study and shows a few of its results, in no order. Positions count from the first letter of the parent shown.

Series 1
Target: CCNB1, cyclin fold, Cln2 fusion (human)
Method: yeast growth competition, sequencing
Sample: yeast
Setting: strong parent motif
Reference: not given
Direction: higher = stronger binding
Measurement: normalised enrichment score
Starting sequence: E2F1 docking peptide (human); PPVKRRLDFETDH
Substitution = P2V; result = 4.71
Substitution = K4P; result = 2.68
Substitution = P2Q; result = 5.17
Substitution = D12M; result = 4.93
Substitution = R5W; result = 0.525
Substitution = R6G; result = 1.22
Substitution = D12E; result = 5.52
Substitution = V3W; result = 2.66
Substitution = P2S; result = 5.37
Substitution = D8R; result = 3.51
Substitution = R5M; result = 3.35
Substitution = K4D; result = 3.26
Substitution = L7E; result = 0.381
Substitution = E10R; result = 3.5
Substitution = F9E; result = 0.799
Substitution = F9M; result = 1.17
Substitution = P2M; result = 4.54
Substitution = F9V; result = 0.476
Substitution = L7V; result = 0.84
Substitution = D8T; result = 4.57
Substitution = K4A; result = 4.61
Substitution = F9H; result = 0.185
Substitution = P2A; result = 4.85
Substitution = V3R; result = 0.387
Substitution = V3F; result = 1.45

Series 2
Target: ABI1, truncated, D143A, DHFR fusion (Arabidopsis thaliana)
Method: DHFR PCA, deep sequencing
Sample: yeast
Setting: methotrexate growth selection, single substitutions
With: (+)-ABA 0.39 µM
Reference: wild-type fitted maximum
Direction: higher = stronger binding
Measurement: relative binding score
Starting sequence: PYL1, truncated, DHFR fusion (Arabidopsis thaliana); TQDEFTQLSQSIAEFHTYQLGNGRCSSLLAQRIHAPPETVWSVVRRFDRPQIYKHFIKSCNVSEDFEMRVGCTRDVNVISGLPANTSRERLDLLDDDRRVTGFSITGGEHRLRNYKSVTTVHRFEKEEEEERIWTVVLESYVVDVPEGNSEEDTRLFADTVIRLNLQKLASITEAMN
Substitution = L28F; result = 2.73%
Substitution = V145A; result = -10.9%
Substitution = D92P; result = -3.95%
Substitution = V43S; result = -0.202%
Substitution = H34E; result = 48.4%
Substitution = E64Y; result = 7.56%
Substitution = D92C; result = 5.7%
Substitution = R69H; result = 21%
Substitution = R99I; result = -8.06%
Substitution = R111M; result = 11.4%
Substitution = T6I; result = 50.6%
Substitution = V161I; result = 84.4%
Substitution = F66R; result = 5.99%
Substitution = S27Y; result = 8.68%

Series 3
Target: RNA binding protein fox-1 homolog 2, RRM domain, GST-SBP tag (RBFOX2, Homo sapiens, UniProt O43251-10, residues 100-194)
Method: RNA Bind-n-Seq
Form: RNA
Sample: in vitro
Tested at: 365 nM
Setting: natural RNA segment, single round, ends assumed
Reference: no-protein control
Direction: higher = stronger binding
Measurement: RBNS enrichment (R)
Construct (chain): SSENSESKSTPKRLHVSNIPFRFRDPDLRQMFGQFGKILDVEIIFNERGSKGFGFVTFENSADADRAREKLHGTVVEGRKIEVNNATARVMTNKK
Strand = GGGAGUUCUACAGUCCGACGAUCGGGUUAGAUGUUGCCAUGUGUUUUAGAUGGUUUCUUGCAAGCAUGCUUGUGAAAAUGUGUUCUCGGAGUGUGUAUGCCAAGAGUGCACCCAUGGUACCAAUCAUGAAUCUUGGAAUUCUCGGGUGCCAA; result = 1.07
Strand = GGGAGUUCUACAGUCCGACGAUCGCAAGGCUGCUGGCAGACUUCUCCACUGACCUGAGUGUGCUUUUUUUUUCCCCUAAAUGUAUUGCAUCAAGCCUCAGUGCUUAUGGAGUGCAGUGGUCUUCAUCUUCCCCUGGAAUUCUCGGGUGCCAA; result = 0.421
Strand = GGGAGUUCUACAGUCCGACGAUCAGUCCACAGCCUCAGGACAAAUGUCGUUGAGGUUACAGAGUAAGAAAUGAUGGCAAAACGUCAAACUCUUAUUUCAGAGCUUCAUGAAUUUAGUUAGACUAAACAUAAUUUGGAAUUCUCGGGUGCCAA; result = 0.231
Strand = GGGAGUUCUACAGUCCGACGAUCCUAGGCAACAUGAUGGGGACCCUCCCCAUUCUUCAUAAAAAUCCCCUCAAGAUCCUCAAGUUGAAUGUUUUGUAGAUCUUCAAGGAUAAGCCUUCUGCUUAUUCUCCUAGUGGAAUUCUCGGGUGCCAA; result = 2.2
Strand = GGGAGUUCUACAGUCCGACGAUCGUAUUGCUGAAUUUGCAGUUAUGUUGUCGUGUAUAAGAGCUACUUCCAAGUGUGGUUACAAAUGAACCCAUGGAAUGAUGACUUCAUGUUCUUCUCGUGGGUUUGUGCCGUGGAAUUCUCGGGUGCCAA; result = 0.224
Strand = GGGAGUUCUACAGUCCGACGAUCGAGGACCAUUGGCUUGCCAAGAGUACAGAAAUUCAUUAUGCUGCUAAUUUAACGUGGAAUUCCUUCAUUUCAUAAGAACCUCAAAAUAAUGGUGAUACAUUCUAGCCUUAUGGAAUUCUCGGGUGCCAA; result = 0.754
Strand = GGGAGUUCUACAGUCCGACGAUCGGCGAGUGGGUAGACCCAAGGCUAGUGUCGCUGCUGUCAGUGGCUUUUUUUUUUUUUUUCAUCGAAGGCCUAAAAUGAUCGCGAUUCGAAAAAACAACGAGAAAAUGACGUGGAAUUCUCGGGUGCCAA; result = 0.763
Strand = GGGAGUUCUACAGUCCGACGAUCGGUGAAGCUGGAUGGGGGAUCCAGUGGAGCAGGAGUUGACGGACAGUCCGUUCACAUCGCUGUGUUUCCUUGUUAACAUUUUUCUUUCUGCAGAGAGGAAGAUAUGUUUUUGGAAUUCUCGGGUGCCAA; result = 0.81

Series 4
Target: Ras GTPase-activating protein-binding protein 1, C-terminal RGG region (G3BP1, Homo sapiens, UniProt Q13283)
Sequence of UniProt Q13283 (whole entry, looked up): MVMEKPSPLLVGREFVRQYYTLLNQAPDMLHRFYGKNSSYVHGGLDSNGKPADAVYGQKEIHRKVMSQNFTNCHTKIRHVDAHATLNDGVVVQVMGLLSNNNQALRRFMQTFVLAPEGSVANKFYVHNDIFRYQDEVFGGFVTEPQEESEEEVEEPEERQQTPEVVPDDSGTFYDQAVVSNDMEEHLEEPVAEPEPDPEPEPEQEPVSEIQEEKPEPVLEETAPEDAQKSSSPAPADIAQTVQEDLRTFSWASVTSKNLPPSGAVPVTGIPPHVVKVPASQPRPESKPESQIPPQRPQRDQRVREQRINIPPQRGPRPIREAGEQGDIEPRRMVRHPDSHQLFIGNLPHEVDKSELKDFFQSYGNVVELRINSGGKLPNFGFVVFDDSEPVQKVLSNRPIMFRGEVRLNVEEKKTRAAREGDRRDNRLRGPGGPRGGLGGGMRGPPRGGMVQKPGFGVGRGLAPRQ
Method: RNA Bind-n-Seq
Form: RNA
Sample: in vitro
Tested at: 1 µM
Setting: whole 134-nt RNA, ends assumed
With: 150 mM KCl
Reference: input library
Direction: higher = stronger binding
Measurement: log2 enrichment
Strand = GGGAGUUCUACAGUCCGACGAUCUGGUGUUCAUAUUGCUGAUGUGAGCCAUUUUAUUAGGCCAGGAAAUGCCUUGGAUCAAGAAUCAGCCAGAAGAGGAACAACUGUGUAUCUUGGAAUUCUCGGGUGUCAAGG; result = -1.04
Strand = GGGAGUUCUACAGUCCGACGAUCCCUCAAGUCCUGUGCUACACAUCGUAUGUACCGAAUCGGCGGCGGGGCGGGGAAAGUAUUAUGUUACGCCGUUCGGAUCUGCACUUCCAGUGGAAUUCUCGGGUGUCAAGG; result = -0.421
Strand = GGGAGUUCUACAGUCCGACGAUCAAGUCCUGUGCUACACAUCGUAUGUACCGAAUCGGGGAAAGGGGAGGGGAAAGGGGAAAGUAUUAUGUUACGCCGUUCGGAUCUGCACUUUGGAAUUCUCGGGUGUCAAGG; result = 2.58
Strand = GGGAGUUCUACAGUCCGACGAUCCACAGACAACACGCACCCACACAGACACAGAGGGAAGGGGUUGGGAAGGGGACAGGGUGCACAGCAGGGCGGGGUAGGACCCCAGCCCCUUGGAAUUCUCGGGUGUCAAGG; result = -0.89
Strand = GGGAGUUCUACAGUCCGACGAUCUCAAGUCCUGUGCUACACAUCGUAUGUACCGAAUCGGAGGAAAGGUUUUUUUGGAAAGUAUUAUGUUACGCCGUUCGGAUCUGCACUUCCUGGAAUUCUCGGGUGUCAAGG; result = -1.43
Strand = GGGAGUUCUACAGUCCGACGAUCACCAUGCAGGUGGGCAUCUUUGGGAAGUGGGGCAAGGGGGGGAUAGGGAGGGGGGUAACACUUUGGGAACAGGGGGUCCCAGGUCGUUUCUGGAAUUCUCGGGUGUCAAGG; result = 1.73
Strand = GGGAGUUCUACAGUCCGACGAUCCCUGUGCUACACAUCGUAUGUACCGAAUCGGGGUUUUUUUGGGGUUUGGGGAAAAAGGGGAAAGUAUUAUGUUACGCCGUUCGGAUCUGCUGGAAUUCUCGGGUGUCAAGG; result = 0.232
Strand = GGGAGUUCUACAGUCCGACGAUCUGGGAGGUGGAUUUUGUUUAUUUUUUUAGCUCAUUUCCAGGGGUGGGAAUUUUUUUUUAAUAUGUGUCAUGAACAAAGUUGUUUUUGAAAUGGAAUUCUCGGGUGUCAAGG; result = 2.35
Strand = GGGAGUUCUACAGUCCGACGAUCCCUCAAGUCCUGUGCUACACAUCGUAUGUACCGAAUCGGGUGGGUGGGGUGGAAAGUAUUAUGUUACGCCGUUCGGAUCUGCACUUCCAGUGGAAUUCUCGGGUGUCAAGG; result = 1.17

Single results of other studies
Substance = PhoQ, residues 284 288 289 292 302 303 AQGLTV; target = PhoP, residues 12 14 15 18 19 IQFRS (Escherichia coli, UniProt P23836); assay = Sort-seq, item: YFP reporter; test system = E. coli; conditions = PhoQ-PhoP variant library, with: 10 µM Mg2+; how to read = reference: high Mg2+ state, higher = stronger signaling; measurement = fold induction; result = 2.85

Repeated from above (series 1):
Substitution = R5M; result = 3.35
Substitution = V3F; result = 1.45
Substitution = L7V; result = 0.84
Substitution = K4P; result = 2.68
